# Measurements from different studies.
# Protocols differ between the studies behind these lines. Numbers after ± are the reported error.
# T1: Psmc3ip/Mnd1 K63A/Y65A/K67A (Mus musculus); chain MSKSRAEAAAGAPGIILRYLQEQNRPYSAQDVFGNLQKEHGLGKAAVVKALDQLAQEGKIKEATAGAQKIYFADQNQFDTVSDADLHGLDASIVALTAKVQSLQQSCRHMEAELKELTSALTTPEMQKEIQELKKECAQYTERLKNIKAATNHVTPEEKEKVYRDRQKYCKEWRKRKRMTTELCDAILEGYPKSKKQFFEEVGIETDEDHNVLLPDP; chain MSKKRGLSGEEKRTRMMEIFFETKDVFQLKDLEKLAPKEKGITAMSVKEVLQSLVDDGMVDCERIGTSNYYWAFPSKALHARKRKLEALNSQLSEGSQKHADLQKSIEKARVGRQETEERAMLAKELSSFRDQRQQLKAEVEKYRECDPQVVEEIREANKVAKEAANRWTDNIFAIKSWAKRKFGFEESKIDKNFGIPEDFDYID
# B1: Fmnl3 555-954 Q746A (Mus musculus, UniProt Q6ZPF4); chain GLSAIRIKKPIKTKFRLPVFNWTALKPNQINGTVFSELDDEKILEDLDLDRFEELFKTKAQGPALDLICSKNKTAQKAASKVTLLEANRAKNLAITLRKAGRSAEEICRAIHTFDLQTLPVDFVECLMRFLPTEAEVKLLRQYERERQPLEELAAEDRFMLLFSKVERLTQRMAGMAFLGNFQDNLQMLTPALNAIIAASASVKSSQKLKQMLEIILALGNYMNSSKRGAVYGFKLQSLDLLLDTKSTDRKMTLLHFIALTVKEKYPELANFWQELHFVEKAAAVSLENVLLDVKELGRGMELIRRECSIHDNSVLRNFLSTNEGKLDKLQRDAKTAEEAYNAVVRYFGESPKTTPPSVFFPVFVRFIRSYKEAEQENEARKKQEEVMREKQLAQEAKKL
# B2: Gp1.2 residues 2-end 2-85 (bacteriophage T7, UniProt P03780); sequence looked up; chain GRLYSGNLAAFKAATNKLFQLDLAVIYDDWYDAYTRKDCIRLRIEDRSGNLIDTSTFYHHDEDVLFNMCTDWLNHMYDQLKDWK
# B3: Fmnl3 555-954 (Mus musculus, UniProt Q6ZPF4); chain GLSAIRIKKPIKTKFRLPVFNWTALKPNQINGTVFSELDDEKILEDLDLDRFEELFKTKAQGPALDLICSKNKTAQKAASKVTLLEANRAKNLAITLRKAGRSAEEICRAIHTFDLQTLPVDFVECLMRFLPTEAEVKLLRQYERERQPLEELAAEDRFMLLFSKVERLTQRMAGMAFLGNFQDNLQMLTPQLNAIIAASASVKSSQKLKQMLEIILALGNYMNSSKRGAVYGFKLQSLDLLLDTKSTDRKMTLLHFIALTVKEKYPELANFWQELHFVEKAAAVSLENVLLDVKELGRGMELIRRECSIHDNSVLRNFLSTNEGKLDKLQRDAKTAEEAYNAVVRYFGESPKTTPPSVFFPVFVRFIRSYKEAEQENEARKKQEEVMREKQLAQEAKKL
# B4: Fmnl3 555-954 K800A (Mus musculus, UniProt Q6ZPF4); chain GLSAIRIKKPIKTKFRLPVFNWTALKPNQINGTVFSELDDEKILEDLDLDRFEELFKTKAQGPALDLICSKNKTAQKAASKVTLLEANRAKNLAITLRKAGRSAEEICRAIHTFDLQTLPVDFVECLMRFLPTEAEVKLLRQYERERQPLEELAAEDRFMLLFSKVERLTQRMAGMAFLGNFQDNLQMLTPQLNAIIAASASVKSSQKLKQMLEIILALGNYMNSSKRGAVYGFKLQSLDLLLDTASTDRKMTLLHFIALTVKEKYPELANFWQELHFVEKAAAVSLENVLLDVKELGRGMELIRRECSIHDNSVLRNFLSTNEGKLDKLQRDAKTAEEAYNAVVRYFGESPKTTPPSVFFPVFVRFIRSYKEAEQENEARKKQEEVMREKQLAQEAKKL
# B5: hns (Escherichia coli, UniProt P0ACF8); chain MSEALKILNNIRTLRAQARECTLETLEEMLEKLEVVVNERREEESAAAAEVEERTRKLQQYREMLIADGIDPNELLNSLAAVKSGTKAKRAQRPAKYSYVDENGETKTWTGQGRTPAVIKKAMDEQGKSLDDFLIKQ
# B6: TRAP 26-496 (Plasmodium falciparum, UniProt P16893); sequence looked up; chain RDVQNNIVDEIKYSEEVCNDQVDLYLLMDCSGSIRRHNWVNHAVPLAMKLIQQLNLNDNAIHLYVNVFSNNAKEIIRLHSDASKNKEKALIIIRSLLSTNLPYGRTNLTDALLQVRKHLNDRINRENANQLVVILTDGIPDSIQDSLKESRKLSDRGVKIAVFGIGQGINVAFNRFLVGCHPSDGKCNLYADSAWENVKNVIGPFMKAVCVEVEKTASCGVWDEWSPCSVTCGKGTRSRKREILHEGCTSEIQEQCEEERCPPKWEPLDVPDEPEDDQPRPRGDNSSVQKPEENIIDNNPQEPSPNPEEGKDENPNGFDLDENPENPPNPDIPEQKPNIPEDSEKEVPSDVPKNPEDDREENFDIPKKPENKHDNQNNLPNDKSDRNIPYSPLPPKVLDNERKQSDPQSQDNNGNRHVPNSEDRETRPHGRNNENRSYNRKYNDTPKHPEREEHEKPDNNKKKGESDNKYK
# B7: FBN1 147-287 (Homo sapiens, UniProt P35555); chain QPVCESGCLNGGRCVAPNRCACTYGFTGPQCERDYRTGPCFTVISNQMCQGQLSGIVCTKTLCCATVGRAWGHPCEMCPAQPHPCRRGFIPNIRTGACQDVDECQAIPGLCQGGNCINTVGSFECKCPAGHKLNEVSQKCE
# B8: HNRNPH1 192-280 (Homo sapiens, UniProt P31943); chain RTHYDPPRKLMAMQRPGPYDRPGAGRGYNSIGRGAGFERMRRGAYGGGYGGYDDYNGYNDGYGFGSDRFGRDLNYCFSGMSDHRYGDGG
Substance,partner,test,test system,conditions,scale,quantity,value
B1 (Fmnl3 555-954 Q746A),"ACTA1, TMR label (Oryctolagus cuniculus, UniProt P68135)",AUC,,KCl 50 mM,,fraction bound,0.95 fraction
"ACE2/pIgR VHH6 Fc fusion ACE2 , Fc fusion (Homo sapiens)","PIGR (Homo sapiens, UniProt P01833)",BLI,,,,koff,5.93e-05 s⁻¹
B2 (Gp1.2 residues 2-end 2-85),"dgt 1-505 (Escherichia coli, UniProt P15723)","dGTP hydrolysis inhibition, inhibitor",,"from KM increase, with: dGTP",,IC50,70 nM
B3 (Fmnl3 555-954),"ACTA1, pyrene label (Oryctolagus cuniculus, UniProt P68135)","inhibition of filament elongation, inhibitor, pyrene-actin assay",,,,IC50,1.7 nM
PTGER2 Y142A (Homo sapiens),GNAS/GNB1/GNG2 heterotrimer (Homo sapiens),GloSensor,COS-7,with: PGE2,"baseline: wild type EP2, higher = greater reduction",cAMP accumulation,50 fold
Ank2,"L1cam (Rattus norvegicus, UniProt Q05695)",single particle tracking,ND-7,,"baseline: untreated, higher = more stationary",stationary behaviour,28.6%
Kistrin-CD31 fusion,ITGAV/ITGB3 D723A (Mus musculus),flow cytometry,B16F1,,"baseline: wild type, higher = more binding",relative binding,2 fold
RII-PvDBP region II R274A (Plasmodium vivax),"ACKR1 1-60 C4A/C51A/C54A (Homo sapiens, UniProt Q16570)",red blood cell rosetting,HEK293T,,"baseline: wildtype, higher = more rosetting",RBC rosetting,50%
"rpoD (Escherichia coli, UniProt P00579)",rpoB/rpoC core RNA polymerase (Escherichia coli),pausing efficiency,,consensus TEC,,apparent Kd,145 nM
B4 (Fmnl3 555-954 K800A),"ACTA1, pyrene label (Oryctolagus cuniculus, UniProt P68135)","inhibition of filament elongation, inhibitor, pyrene-actin assay",,,,IC50,8.3 nM
B5 (hns),"Tn5 transposase transpososome with end DNA E54K/M56A/L372P (Tn5 transposon, UniProt Q46731)",EMSA,,with: heparin,"baseline: without H-NS, higher = more transpososome",fold increase in transpososome formation,17 fold
"N-formyl-Met-Leu-Phe, N-formyl","FPR1 (Homo sapiens, UniProt P21462)","aequorin luminescence, agonist",CHO-K1,,,pEC50,9.39 pEC50
B6 (TRAP 26-496),ITGAV/ITGB3 ectodomain heterodimer 31-992 (Homo sapiens),SPR,,,,koff,0.00332 ± 2e-05 s⁻¹
"DMC1 (Homo sapiens, UniProt Q14565)","T1, Psmc3ip/Mnd1 K63A/Y65A/K67A (Mus musculus)",pull-down,,,,binding,binds
B7 (FBN1 147-287),"FBLN5 42-448 (Homo sapiens, UniProt Q9UBX5)",ELISA,,,,binding,binds
BUD4 fragment (Saccharomyces cerevisiae),"IQG1 295-823 (Saccharomyces cerevisiae, UniProt Q12280)",two-hybrid,,,higher = stronger interaction,beta-galactosidase activity,401.16 ± 0.4 Miller units
"kaiA (Synechococcus elongatus, UniProt Q79PF6)","kaiC 1-519 E352D (Synechococcus elongatus, UniProt Q79PF4)","priming phosphorylation, SDS-PAGE",,"0.2 mg/mL, 30 °C, with: KaiA 0.04 mg/mL",higher = faster,rate constant k1,0.15 h⁻¹
B8 (HNRNPH1 192-280),"FUS 2-214 (Homo sapiens, UniProt P35637)","trapping in hydrogel, hydrogel binding",,"pH 7.5, 4 °C, NaCl 200 mM",,binding,binds

# For quick reference, copied from above:
Substance,partner,test,test system,conditions,scale,quantity,value
"rpoD (Escherichia coli, UniProt P00579)",rpoB/rpoC core RNA polymerase (Escherichia coli),pausing efficiency,,consensus TEC,,apparent Kd,145 nM
B3 (Fmnl3 555-954),"ACTA1, pyrene label (Oryctolagus cuniculus, UniProt P68135)","inhibition of filament elongation, inhibitor, pyrene-actin assay",,,,IC50,1.7 nM
